Assay results pooled from the literature.
A part holds a random share of what one study measured. Substitutions count along the parent as printed.

Set 1
Target: Interferon regulatory factor 3, full length, phosphomimetic (IRF3, Homo sapiens, UniProt Q14653, residues 1-427, S386D/S396D/S398D/S402D/T404D/S405D)
Method: protein-binding microarray
Molecule type: double-stranded DNA, one strand shown
Matrix: in vitro
Concentration: 2540 nM top
Notes: 60-bp whole probe
Added: salmon DNA 0.4 mg/ml
Baseline: random background probes
Direction: higher = stronger binding
Quantity: fitted relative affinity
Constant ends, left off below: GCCTAGCAC … GTCTTGATTCGCTTGACGCTGCTG
Target sequence (chain): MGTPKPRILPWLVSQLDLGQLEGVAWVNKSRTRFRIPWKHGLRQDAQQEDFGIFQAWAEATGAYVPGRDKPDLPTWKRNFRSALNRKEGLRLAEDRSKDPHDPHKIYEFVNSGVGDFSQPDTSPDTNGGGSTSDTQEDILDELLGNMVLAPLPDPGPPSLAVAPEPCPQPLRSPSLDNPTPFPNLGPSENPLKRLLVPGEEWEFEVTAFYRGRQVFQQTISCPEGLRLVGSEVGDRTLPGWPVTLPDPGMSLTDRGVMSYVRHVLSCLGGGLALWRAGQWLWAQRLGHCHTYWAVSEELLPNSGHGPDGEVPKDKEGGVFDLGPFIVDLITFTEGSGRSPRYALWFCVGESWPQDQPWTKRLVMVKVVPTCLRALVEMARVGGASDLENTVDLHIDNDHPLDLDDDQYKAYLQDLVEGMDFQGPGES
GACGGACTGGGACTGGTGACGTGCTAG: -0.774 z-score
TTTTTTTTGTATTTTTGATAGTGCTAG: 1.28 z-score
CACGGTTTCCTACTGCTGACGTGCTAG: 4.67 z-score
GACAATATCAGTTTCGAGACGTGCTAG: 3.87 z-score
TCAATTTTCTGAATGCCACTGTGCTAG: 1.35 z-score
TTAGGTTTCTTTCTCCTTTAGTGCTAG: 5.04 z-score
GACGAACTGAGACTCGAGACGTGCTAG: -0.367 z-score
GACGGTATCCTACTGCAGACGTGCTAG: 2.77 z-score
GACGGTTCCCTACTGCTGACGTGCTAG: 2.48 z-score
GTTCTACCTCTGCCTTTTGTGTGCTAG: 0.892 z-score
TTAGGTTTCCTTATCCTTAAGTGCTAG: 8.5 z-score
GCCGGACTGCTTATCCTGACGTGCTAG: 0.118 z-score
GAGGAGATGAGAAACGATGAGTGCTAG: -0.438 z-score
GAAATTTTTTTTCTAACTAAGTGCTAG: 0.986 z-score
GTAGGTATCGACTTTCGGTTAGTGCTA: 2.03 z-score
GACGGTTTCGGTTCGGGGACGTGCTAG: 7.84 z-score
TTAGAACGGAGTCTCGATTAGTGCTAG: -0.116 z-score
GCCGATTTCAGTATCGAGACGTGCTAG: 2.98 z-score
GACGATTTCAGTCTCGAGGCGTGCTAG: 2.34 z-score
CTCTGCTTGGGTCTGGGTATGTGCTAG: -0.543 z-score
TCAAGTAGCTTTCTGAGACTGTGCTAG: 0.0901 z-score
GACGGTATCCTACTGCCGACGTGCTAG: 3.18 z-score
TCAGATCTCAGTTTCGATTAGTGCTAG: 4.02 z-score
TTAGGTTTCGGTATCGGATAGTGCTAG: 9.18 z-score
CCTCACATGACTGAATGGACGTGCTAG: 0.0877 z-score

Set 2
Target: RNA binding protein fox-1 homolog 2, RRM domain, GST-SBP tag (RBFOX2, Homo sapiens, UniProt O43251-10, residues 100-194)
Method: RNA Bind-n-Seq
Molecule type: RNA
Matrix: in vitro
Concentration: 365 nM
Notes: natural RNA segment, single round, ends assumed
Baseline: no-protein control
Direction: higher = stronger binding
Quantity: RBNS enrichment (R)
Constant ends, left off below: GGGAGUUCUACAGUCCGACGAUC … UGGAAUUCUCGGGUGCCAA
Construct (chain): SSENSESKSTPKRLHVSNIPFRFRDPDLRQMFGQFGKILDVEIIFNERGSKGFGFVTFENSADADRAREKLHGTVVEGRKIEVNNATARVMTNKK
GCAUUGCAGGAUUAUUAGUGUAUUUUGAGUCUGUAAAAAUAAUAAAUAUGUUUGAAGUAGUUUCCCAUUGUGUAGUUAGUUUCCUUAUCAAUCAUGAUAGGUAUCCAGGA: 1.34
GGGCUCCCUGGCAUGCCUGCCCUAGAAUUGUUAUGUUGGGCAUCACAGUCAUGAACUUUUGUUUUUCUCCCUUUUUUAGUUUUUUCAAAGAUGGGGGGAAGGGAAAUAUG: 1.9
GGCAGAAGAUUCAAAGCAGCUUAAACAGCACUUUUAAAUUAACUCCUAAGCGUUACAUGGUUGUGACUAUGGAAACUCCAGUUAAGACAGGAUCUUAUCAGAGGUGGACA: 0.293
AGAUAAAUGGUUAAUUGUUGGGGCUGGGAAAAUGGCCCAGUGGUUAAAAGUAUUCAUUCCUCUCGAGGACCCAGGAUCAAUUUCCAGCAUCCACAUGGCAGCUCACAACC: 0.74
UUUGACAGAAACCUAAAGACACAUCCACAUCCAUGCAUAGGGCUGUUGCUUGUUGUGUUGUAGGCAUGCUCUUCUCACCUUCUGUCAAGGACCUGGUGCCCUGGGUGGUG: 9.57
AGUUUUUCUAAGCUAGAACCUUUGAGUCCCCCAAACUGCCUGAAGACUUAAGUUUUGUGGGCACUGGAAGUCACUUUGAUAGAUGGAUUGAAACUGUUCCUAUUUGCCCU: 0.396
CUGGUUAGCCAUUCCCUCACUCUCUGUUCCCUCCUGCGUGCCUGCAUUUCCUAUAGACAGGUUAAAUUUUGGGUUGAAAGUUUUGUGGGUGGGUUGGUGUCUCUUAUCGC: 0.616
UCUUAAUAGCGGGAGGGGGGUAUAUUUGUGCAGUUGCACAUUUGAGUAACUAUUUUCUUUCUGUUUUCUUUUACUCUGCUUACAUUUUAUAAGUUUAAGGUCAGCUGUCA: 0.632
AUGUGUUAAGAGUGAGUGGUACACUGGGGUUUAUUUCUGUGGCCUGGGAAGGAAGAAACCAUCACGAGGAUUGGUGAACAAAGUGUGCUCACUGGGUUUCUGGAUUAUUC: 1.12
GGGGGCAACAGGGGCCAGACUCCUCUAGAGGGAGGGUGGCUCUGGGGCCCUGGAAAACGUGAGAGACUGCCCUGAGCUGGUCCAGUGGGCCAGCACUUUAUACCAACUCA: 0.232
CGCUGUGUUCUAGGCCCGCCCACCCCAACCUUCUGGUGGGGAGAAAUAAACGGUUUAGAGACUAGGAGUGCCUCGGGGUUCCUUGGCUUGCGGGAGGAAUUGGUGCAGAG: 0.841
CCUUAUGUCAUCAGAUUCCUCCUAGGGGAGAGUUUUUGUUUUAAUUACAAAAUUAAAUUCUACAUUGUUACCAAGAAAUUUGUGGUGAUAAAAAUGGAAAAAUAAAAAUU: 0.647

Set 3
Target: CCNB3, cyclin fold, Cln2 fusion (human)
Method: yeast growth competition, sequencing
Matrix: yeast
Notes: strong parent motif
Baseline: not given
Direction: higher = stronger binding
Quantity: normalised enrichment score
Parent: TICRR docking peptide (human); TKVRRNLFNQELL; partner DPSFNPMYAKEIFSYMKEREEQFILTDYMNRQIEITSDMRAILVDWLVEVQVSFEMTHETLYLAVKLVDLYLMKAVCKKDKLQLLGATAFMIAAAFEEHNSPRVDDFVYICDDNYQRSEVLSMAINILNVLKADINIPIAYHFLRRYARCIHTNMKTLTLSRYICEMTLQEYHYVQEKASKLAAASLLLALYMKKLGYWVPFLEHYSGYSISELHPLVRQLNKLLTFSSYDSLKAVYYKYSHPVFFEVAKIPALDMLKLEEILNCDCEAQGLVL
TKVARNLFNQELL [R4A]: 0.117
TKVRRNLFNQELA [L13A]: 1.33
TKVRKNLFNQELL [R5K]: 0.497
TKVRRNLFAQELL [N9A]: 0.644
TKVRANLFNQELL [R5A]: 0.133
TKVRKNLLNQELL [R5K F8L]: 0.274
AKVRRNLFNQELL [T1A]: 1.14
TKVRANAFNQELL [R5A L7A]: -0.0953
TKARRNLFNQELL [V3A]: -0.118
TKVRRNAFNQELL [L7A]: -0.266

Set 4
Target: Prothrombin, mature alpha-thrombin (F2, Homo sapiens, UniProt P00734)
Method: aptamer microarray, sandwich
Molecule type: DNA with 2'F-ANA
Matrix: in vitro
Concentration: 200 nM
Notes: whole 15-mer aptamer, many near background
Added: Cy3 exosite-II aptamer, 400 nM
Direction: higher = stronger binding
Quantity: mean fluorescence intensity
Oligonucleotide: GGTTGGTGTGGTTGG
2'F-ANA at 3 7 9 15: 1100 a.u.
2'F-ANA at 1 3 7 8 10 11 13 15: 77.9 a.u.
2'F-ANA at 3 5 7 10 12: 66.6 a.u.
2'F-ANA at 1 2 3 4 5 6 10 11 13 14 15: 51 a.u.
2'F-ANA at 3 4 5 7 8 10 11 14 15: 52.9 a.u.
2'F-ANA at 1 2 3 4 5 6 9 13 15: 52.9 a.u.
2'F-ANA at 4 8 10 11 12 14 15: 58.4 a.u.
2'F-ANA at 1 4 7 12 13 15: 215 a.u.
2'F-ANA at 3 8 9 11 13 14: 599 a.u.
2'F-ANA at 2 3 4 7 8 9 10 12 13 14: 199 a.u.
2'F-ANA at 2 7 9 10 15: 161 a.u.
2'F-ANA at 2 3 4 8 11 12: 869 a.u.
2'F-ANA at 3 5 7 8 9 12 14 15: 75 a.u.
2'F-ANA at 6 10 11 12 14: 118 a.u.
2'F-ANA at 4 5 6 7 8 9 10 11 12 14: 48.6 a.u.
2'F-ANA at 1 2 3 5 8 9 12 13 15: 99.5 a.u.
2'F-ANA at 1 3 7 8 9 10 11: 98.9 a.u.
2'F-ANA at 2 3 5 6 7 10 11 14: 51.8 a.u.
2'F-ANA at 2 7 8 10 11 12 14 15: 88.1 a.u.

Set 5
Target: Histone acetyltransferase KAT6A, winged helix 2, GST fusion (KAT6A, Homo sapiens, UniProt Q92794, residues 85-181)
Method: protein binding microarray
Molecule type: double-stranded DNA, one strand shown
Matrix: in vitro
Concentration: not given
Notes: 8-mer, flanks averaged, mean of 2 arrays, mostly near background
Baseline: not given
Direction: higher = stronger binding
Quantity: E-score
Residues (chain): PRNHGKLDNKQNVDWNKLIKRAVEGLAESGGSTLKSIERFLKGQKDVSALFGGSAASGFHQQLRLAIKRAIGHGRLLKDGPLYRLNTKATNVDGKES
AGCGGACT: -0.222
GACCAGCC: 0.107
TAGTCATA: -0.274
GATCGACC: 0.203
AGGTCGCA: 0.179
CTACGACC: -0.0862
GAAAGACA: 0.0592
ACACACAA: -0.0146
AGCGCAAA: 0.16
ATACTCAT: -0.0869
CACAAGCC: 0.0185
CGAAGCCG: 0.13
AAGCATGG: -0.0116
GGGAGCTA: -0.186
ATCTGCGG: 0.255
GCCTCACC: 0.0963
AGGCCTTG: -0.0898
AGCGTGCA: 0.074
ATCACCAC: -0.0599
GTTGCATA: 0.084
CCCGCGGG: 0.226
GTCCACAA: -0.18
CGATGCTA: -0.02
CACGGGTA: -0.0898
TGAATTCA: 0.000715

Set 6
Target: ABI1, truncated, D143A, DHFR fusion (Arabidopsis thaliana)
Method: DHFR PCA, deep sequencing
Matrix: yeast
Notes: methotrexate growth selection, single substitutions
Added: (+)-ABA 200 µM
Baseline: wild-type fitted maximum
Direction: higher = stronger binding
Quantity: relative binding score
Parent: PYL1, truncated, DHFR fusion (Arabidopsis thaliana); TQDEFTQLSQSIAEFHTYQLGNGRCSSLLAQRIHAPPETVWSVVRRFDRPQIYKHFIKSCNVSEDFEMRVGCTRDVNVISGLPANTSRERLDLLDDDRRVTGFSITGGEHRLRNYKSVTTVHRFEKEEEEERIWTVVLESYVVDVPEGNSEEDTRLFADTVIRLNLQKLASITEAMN; partner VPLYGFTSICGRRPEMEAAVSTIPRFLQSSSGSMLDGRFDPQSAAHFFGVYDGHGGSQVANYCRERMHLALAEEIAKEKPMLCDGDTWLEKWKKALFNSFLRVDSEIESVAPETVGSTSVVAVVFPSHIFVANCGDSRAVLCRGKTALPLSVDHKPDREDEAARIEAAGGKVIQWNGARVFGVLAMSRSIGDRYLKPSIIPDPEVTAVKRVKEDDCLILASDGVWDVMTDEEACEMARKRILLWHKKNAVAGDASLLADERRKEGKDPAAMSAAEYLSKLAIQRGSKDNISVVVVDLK
N177P: 89.6%
Q2G: 90.4%
F47I: -5.11%
W134K: 93.1%
L8D: 53.2%
L91S: 4.3%
C25Y: 26.7%
N165R: 8.29%
E139R: 5.6%
L93K: 91.9%
H122K: 15%
H122F: -0.403%
R99G: 77.5%
L91C: 86.2%
V136S: 39.8%

Other studies, line by line
PhoQ, residues 284 288 289 292 302 303 SLANIV
fold induction (PhoP, residues 12 14 15 18 19 LWHVM (Escherichia coli, UniProt P23836); Sort-seq, refers to: YFP reporter; E. coli; PhoQ-PhoP variant library, added: 10 µM Mg2+; baseline: high Mg2+ state, higher = stronger signaling): 9.59

A few entries again (set 5):
AGGCCTTG: -0.0898
AGGTCGCA: 0.179
CACAAGCC: 0.0185
ATACTCAT: -0.0869
GGGAGCTA: -0.186
TAGTCATA: -0.274
ACACACAA: -0.0146
CCCGCGGG: 0.226
